# Published values collected from several papers.
# Numbered parts are unrelated; each lists some results of a single study. Several values in a cell are separate wells, animals, samples, runs or records.
# UniProt P50613, sequence (whole entry, looked up): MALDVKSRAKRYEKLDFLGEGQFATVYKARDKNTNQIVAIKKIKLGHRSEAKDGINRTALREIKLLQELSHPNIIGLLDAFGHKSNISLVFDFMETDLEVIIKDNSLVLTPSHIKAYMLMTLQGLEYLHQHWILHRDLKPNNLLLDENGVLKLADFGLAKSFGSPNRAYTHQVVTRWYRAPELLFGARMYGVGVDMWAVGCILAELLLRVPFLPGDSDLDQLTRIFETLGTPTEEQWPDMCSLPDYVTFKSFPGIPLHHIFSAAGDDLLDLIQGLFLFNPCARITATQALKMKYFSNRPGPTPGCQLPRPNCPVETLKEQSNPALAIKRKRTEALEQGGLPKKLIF
# UniProt Q96NX5, sequence (whole entry, looked up): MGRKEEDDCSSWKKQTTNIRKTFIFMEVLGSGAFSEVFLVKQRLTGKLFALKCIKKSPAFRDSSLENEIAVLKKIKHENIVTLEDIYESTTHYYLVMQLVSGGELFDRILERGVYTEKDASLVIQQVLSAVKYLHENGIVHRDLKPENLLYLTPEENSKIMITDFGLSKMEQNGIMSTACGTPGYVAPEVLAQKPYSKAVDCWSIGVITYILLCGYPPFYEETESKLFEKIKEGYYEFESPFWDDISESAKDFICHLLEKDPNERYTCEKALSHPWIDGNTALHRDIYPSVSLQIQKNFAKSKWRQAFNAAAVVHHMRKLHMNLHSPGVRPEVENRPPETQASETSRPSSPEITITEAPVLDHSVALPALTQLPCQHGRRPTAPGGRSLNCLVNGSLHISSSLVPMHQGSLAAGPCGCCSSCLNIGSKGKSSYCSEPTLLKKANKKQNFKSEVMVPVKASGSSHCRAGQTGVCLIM
# UniProt P35348, sequence (whole entry, looked up): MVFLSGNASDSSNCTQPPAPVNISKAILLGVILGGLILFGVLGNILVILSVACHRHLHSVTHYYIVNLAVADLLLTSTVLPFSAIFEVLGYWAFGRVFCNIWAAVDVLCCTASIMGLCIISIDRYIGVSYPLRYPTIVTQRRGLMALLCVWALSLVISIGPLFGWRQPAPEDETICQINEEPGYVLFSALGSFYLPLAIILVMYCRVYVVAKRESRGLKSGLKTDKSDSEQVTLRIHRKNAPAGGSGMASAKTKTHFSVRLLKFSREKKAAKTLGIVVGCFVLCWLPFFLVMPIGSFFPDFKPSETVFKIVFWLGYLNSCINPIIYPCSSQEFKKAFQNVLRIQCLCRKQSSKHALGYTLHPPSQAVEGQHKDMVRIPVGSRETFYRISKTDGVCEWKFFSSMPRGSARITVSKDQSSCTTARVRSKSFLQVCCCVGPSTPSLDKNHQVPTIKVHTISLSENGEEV
# UniProt Q9H422, sequence (whole entry, looked up): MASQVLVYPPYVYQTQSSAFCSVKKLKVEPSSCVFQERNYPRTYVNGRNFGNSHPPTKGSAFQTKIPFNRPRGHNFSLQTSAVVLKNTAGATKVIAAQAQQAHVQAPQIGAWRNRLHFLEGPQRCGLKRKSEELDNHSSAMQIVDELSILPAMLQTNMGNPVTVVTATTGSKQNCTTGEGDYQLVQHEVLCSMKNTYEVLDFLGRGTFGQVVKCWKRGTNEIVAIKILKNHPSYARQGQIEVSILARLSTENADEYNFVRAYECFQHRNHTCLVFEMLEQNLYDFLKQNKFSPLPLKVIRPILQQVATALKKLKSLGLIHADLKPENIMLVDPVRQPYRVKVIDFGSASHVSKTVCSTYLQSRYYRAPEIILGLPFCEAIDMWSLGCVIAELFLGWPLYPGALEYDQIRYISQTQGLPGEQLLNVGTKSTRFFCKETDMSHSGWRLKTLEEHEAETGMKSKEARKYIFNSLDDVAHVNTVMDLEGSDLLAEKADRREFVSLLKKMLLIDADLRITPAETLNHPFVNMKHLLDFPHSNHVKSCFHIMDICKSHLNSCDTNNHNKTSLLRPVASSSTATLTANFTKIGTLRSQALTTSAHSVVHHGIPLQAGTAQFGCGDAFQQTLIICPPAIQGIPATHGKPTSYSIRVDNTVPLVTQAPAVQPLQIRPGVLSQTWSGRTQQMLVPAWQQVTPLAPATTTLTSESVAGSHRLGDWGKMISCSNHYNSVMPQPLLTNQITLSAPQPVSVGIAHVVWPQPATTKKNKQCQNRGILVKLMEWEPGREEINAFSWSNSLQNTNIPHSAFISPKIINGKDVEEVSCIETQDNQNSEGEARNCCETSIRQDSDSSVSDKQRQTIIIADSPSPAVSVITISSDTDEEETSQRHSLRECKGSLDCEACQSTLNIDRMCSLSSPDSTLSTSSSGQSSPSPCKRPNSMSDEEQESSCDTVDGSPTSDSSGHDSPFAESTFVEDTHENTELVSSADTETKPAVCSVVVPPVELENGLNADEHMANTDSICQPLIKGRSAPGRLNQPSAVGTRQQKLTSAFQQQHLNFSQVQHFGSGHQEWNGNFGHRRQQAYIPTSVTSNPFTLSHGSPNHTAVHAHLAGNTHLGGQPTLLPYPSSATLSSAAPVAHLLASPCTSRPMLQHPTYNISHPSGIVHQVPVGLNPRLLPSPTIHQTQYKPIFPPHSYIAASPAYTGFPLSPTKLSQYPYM
# UniProt Q14289, sequence (whole entry, looked up): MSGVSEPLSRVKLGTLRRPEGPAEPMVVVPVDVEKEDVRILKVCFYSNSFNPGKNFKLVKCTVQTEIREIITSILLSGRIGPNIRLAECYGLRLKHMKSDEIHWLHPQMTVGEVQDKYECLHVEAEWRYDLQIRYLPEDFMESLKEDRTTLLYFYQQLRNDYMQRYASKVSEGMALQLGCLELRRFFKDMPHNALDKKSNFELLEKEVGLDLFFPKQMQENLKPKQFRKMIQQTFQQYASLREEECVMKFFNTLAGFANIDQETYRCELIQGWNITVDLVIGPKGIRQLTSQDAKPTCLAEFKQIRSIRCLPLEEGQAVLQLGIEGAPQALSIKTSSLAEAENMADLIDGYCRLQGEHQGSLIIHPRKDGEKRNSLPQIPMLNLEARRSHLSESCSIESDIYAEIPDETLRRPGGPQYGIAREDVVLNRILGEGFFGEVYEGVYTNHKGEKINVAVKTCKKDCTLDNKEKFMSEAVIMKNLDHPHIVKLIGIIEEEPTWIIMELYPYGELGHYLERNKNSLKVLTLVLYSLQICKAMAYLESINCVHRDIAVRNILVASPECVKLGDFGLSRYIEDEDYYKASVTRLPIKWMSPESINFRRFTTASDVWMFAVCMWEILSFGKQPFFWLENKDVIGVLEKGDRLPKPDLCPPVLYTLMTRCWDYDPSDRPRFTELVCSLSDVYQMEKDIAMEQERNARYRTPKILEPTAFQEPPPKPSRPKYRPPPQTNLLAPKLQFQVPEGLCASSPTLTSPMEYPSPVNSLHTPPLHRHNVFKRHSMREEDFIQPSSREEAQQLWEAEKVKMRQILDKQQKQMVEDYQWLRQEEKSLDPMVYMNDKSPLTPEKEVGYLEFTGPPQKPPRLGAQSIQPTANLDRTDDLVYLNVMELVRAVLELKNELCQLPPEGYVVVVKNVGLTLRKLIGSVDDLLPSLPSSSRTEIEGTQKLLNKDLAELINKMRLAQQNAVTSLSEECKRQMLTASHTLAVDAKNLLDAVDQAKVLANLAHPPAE
# UniProt P07550, sequence (whole entry, looked up): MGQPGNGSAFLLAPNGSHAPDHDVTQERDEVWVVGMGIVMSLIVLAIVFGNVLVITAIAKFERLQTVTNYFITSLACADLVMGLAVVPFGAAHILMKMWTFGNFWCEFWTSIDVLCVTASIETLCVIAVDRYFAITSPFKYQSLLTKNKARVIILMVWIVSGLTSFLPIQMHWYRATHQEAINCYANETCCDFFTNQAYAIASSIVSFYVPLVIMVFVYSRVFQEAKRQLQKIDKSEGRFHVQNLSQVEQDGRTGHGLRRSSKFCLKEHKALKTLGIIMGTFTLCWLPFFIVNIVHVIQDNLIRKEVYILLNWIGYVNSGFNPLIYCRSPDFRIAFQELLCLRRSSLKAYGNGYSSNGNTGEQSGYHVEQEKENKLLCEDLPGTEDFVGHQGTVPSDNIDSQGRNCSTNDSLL
# UniProt P34947, sequence (whole entry, looked up): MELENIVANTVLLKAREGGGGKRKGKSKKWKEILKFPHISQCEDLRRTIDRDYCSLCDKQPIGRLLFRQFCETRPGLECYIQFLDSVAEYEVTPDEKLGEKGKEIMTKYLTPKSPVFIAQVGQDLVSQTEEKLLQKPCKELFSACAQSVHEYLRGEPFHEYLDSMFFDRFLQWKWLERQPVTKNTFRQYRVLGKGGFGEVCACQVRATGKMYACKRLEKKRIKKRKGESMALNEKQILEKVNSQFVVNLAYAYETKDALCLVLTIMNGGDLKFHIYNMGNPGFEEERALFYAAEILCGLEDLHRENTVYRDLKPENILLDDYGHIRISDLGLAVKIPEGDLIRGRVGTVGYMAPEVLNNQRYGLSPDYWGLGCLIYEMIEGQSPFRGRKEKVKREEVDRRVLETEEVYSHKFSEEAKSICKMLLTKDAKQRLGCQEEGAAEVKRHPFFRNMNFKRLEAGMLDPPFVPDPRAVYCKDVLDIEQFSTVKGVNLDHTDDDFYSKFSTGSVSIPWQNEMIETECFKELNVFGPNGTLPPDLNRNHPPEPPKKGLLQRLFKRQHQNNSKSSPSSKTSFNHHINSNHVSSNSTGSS
# UniProt Q9NR20, sequence (whole entry, looked up): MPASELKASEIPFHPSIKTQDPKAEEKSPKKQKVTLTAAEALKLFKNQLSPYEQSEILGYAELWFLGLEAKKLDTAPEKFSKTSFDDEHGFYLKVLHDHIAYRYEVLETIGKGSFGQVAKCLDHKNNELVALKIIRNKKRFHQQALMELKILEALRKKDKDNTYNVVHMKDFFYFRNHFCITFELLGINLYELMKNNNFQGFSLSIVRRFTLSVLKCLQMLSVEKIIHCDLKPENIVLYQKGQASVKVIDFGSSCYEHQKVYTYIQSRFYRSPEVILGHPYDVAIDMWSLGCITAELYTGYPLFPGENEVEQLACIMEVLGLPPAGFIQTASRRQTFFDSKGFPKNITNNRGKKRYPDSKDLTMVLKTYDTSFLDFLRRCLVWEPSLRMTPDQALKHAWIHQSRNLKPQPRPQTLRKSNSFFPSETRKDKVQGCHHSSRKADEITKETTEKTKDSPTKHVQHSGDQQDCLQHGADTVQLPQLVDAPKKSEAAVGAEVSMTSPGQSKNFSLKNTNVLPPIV

# Sample 1
# Compound: Cn1nc(C(F)(F)F)cc1-c1cnc(N2CCc3cc(S(=O)(=O)Nc4c(F)cc(Cl)cc4F)cc(N4CCCC4=O)c32)nc1
# Read-out: cell-free assay
# Tested at: 10 µM
target,inhibition
"ADRB1 (Homo sapiens, UniProt P08588)",-10.8%
"DRD1 (Homo sapiens, UniProt P21728)",-6.95%
"HTR6 (Homo sapiens, UniProt P50406)",6.67%
"ADRB2 (Homo sapiens, UniProt P07550)",17.4%
"ADRA2C (Homo sapiens, UniProt P18825)",17.9%
"TMEM97 (Homo sapiens, UniProt Q5BJF2)",-27.8%
"DRD3 (Homo sapiens, UniProt P35462)",2.14%
"HRH3 (Homo sapiens, UniProt Q9Y5N1)",0.43%
"ADRA2A (Homo sapiens, UniProt P08913)",-9.1%
"ADRA1A (Homo sapiens, UniProt P35348)",6.96%

# Sample 2
# Cell line: A-375
# Tested at: 100 µM
# Time: 36 h
SMILES,viability [%]
Cn1c([N+](=O)[O-])cnc1COC(N)=O,101
CC(=O)OCC(=O)NCCCOc1cccc(CN2CCCCC2)c1,89.9
CCCC(=O)OCOC(=O)C1=C(C)NC(C)=C(C(=O)OC)C1c1cccc(Cl)c1Cl (stereo not shown),11.2
CNC[C@H](O)c1ccc(O)c(O)c1,114
CCNC(=O)CCC/C=C\C[C@@H]1[C@@H](/C=C/[C@@H](O)CCc2ccccc2)[C@H](O)C[C@@H]1O,98.1
O=C(CCNNC(=O)c1ccncc1)NCc1ccccc1,101
NC[C@H]1O[C@H](O[C@H]2[C@H](O[C@@H]3O[C@H](CO)[C@@H](O)[C@H]3O)[C@@H](O)[C@H](N)C[C@@H]2N)[C@H](N)[C@@H](O)[C@@H]1O,106
CN(C)CCOC(=O)COc1ccc(Cl)cc1,86.4
C[C@H]1COc2c(C3(N)CC3)c(F)cc3c(=O)c(C(=O)O)cn1c23,113
CCN(CC)C(=O)N1CCN(C)CC1,107

# Sample 3
# Cell line: mouse MPNST tumor cells
# Technique: high-content immunofluorescence imaging
# Measured: nuclear SOX9
# Tested at: 10 µM
# Time: 12 h
# Notes: mean of 2 replicates
# Baseline: DMSO control
# Direction: higher = more nuclear SOX9
SMILES,nuclear SOX9 intensity
Cn1c(=O)c2[nH]c(C3CCCC3)nc2n(C)c1=O,93.3 % of DMSO
O=C(O)CCc1ccc(NCc2cccc(Oc3ccccc3)c2)cc1,108 % of DMSO
N=C(N)SCc1ccc(B(O)O)cc1,98.2 % of DMSO
Cn1ncnc1COc1nn2c(-c3cc(F)ccc3F)nnc2cc1C(C)(C)C,91.4 % of DMSO
CCC(NC(C)C)C(O)c1ccc(O)c2[nH]c(=O)ccc12 (stereo not shown),101 % of DMSO
NC(=O)c1noc([C@H](CCCC2CCCCC2)CC(=O)NO)n1,107 % of DMSO
Cc1coc2c1C(=O)C(=O)c1c-2ccc2c(C)cccc12,83.8 % of DMSO
O=P(O)(O)C(O)(Cn1ccnc1)P(=O)(O)O,93.1 % of DMSO
CC(C)c1ccc2oc3nc(N)c(C(=O)O)cc3c(=O)c2c1,105 % of DMSO and 95.7 % of DMSO
CN1C(=O)c2sccc2N(C)c2nc(Nc3ccc(S(N)(=O)=O)cc3)ncc21,115 % of DMSO
CC(=O)Oc1ccc(C(c2ccc(OC(C)=O)cc2)c2ccccn2)cc1,101 % of DMSO
COc1ccc2[nH]cc(CCNC(C)=O)c2c1,98.9 % of DMSO and 100 % of DMSO
COC(=O)CCc1ccc(OCC(O)CNC(C)C)cc1 (stereo not shown),105 % of DMSO
OC(Cn1cncn1)(Cn1cncn1)c1ccc(F)cc1F,92.9 % of DMSO
Cc1c(C)c(NCC(=O)N(C)C2CCN(Cc3ccc(C(N)=O)cc3)CC2)c(C)c(C)c1N,103 % of DMSO
Cn1c(=O)c2c(ncn2CC(=O)O)n(C)c1=O,106 % of DMSO
COC(=O)Nc1nc2cc(C(=O)c3ccc(F)cc3)ccc2[nH]1,210 % of DMSO
C=C1/C(=C\C=C2/CCC[C@]3(C)[C@@H]([C@H](C)CCCC(C)C)CC[C@@H]23)C[C@@H](O)C[C@@H]1O,88.6 % of DMSO
COc1cccc(-n2nc(C(=O)O)cc2-c2ccc(C3CCCCC3)c(Cl)c2)c1,137 % of DMSO
C=CCc1ccccc1OCC(O)CNC(C)C (stereo not shown),139 % of DMSO
N=C(N=C(N)N)N1CCOCC1,92.5 % of DMSO

# Sample 4
# Structure (SMILES): CC[n+]1c(/C=C/N(C)c2ccccc2)n(-c2ccccc2)c2ccc(-c3nc4ccccc4s3)cc21
# Read-out: enzyme activity
# Action: inhibitor
# Tested at: 0.5 µM
# Baseline: control
target,remaining activity [%]
"HIPK3 (Homo sapiens, UniProt Q9H422)",105
"Aurora kinase A (AURKA, Homo sapiens, UniProt O14965)",88.1
"GRK5 (Homo sapiens, UniProt P34947)",109
"CAMK1D (Homo sapiens, UniProt Q8IU85)",99.7
"DMPK (Homo sapiens, UniProt Q09013)",93.9
"BRSK1 (Homo sapiens, UniProt Q8TDC3)",101
"MAPK10 (Homo sapiens, UniProt P53779)",92.7
"NEK9 (Homo sapiens, UniProt Q8TD19)",108
"ROS1 (Homo sapiens, UniProt P08922)",99.1
"Cyclin-dependent kinase 2, with cyclin A (CDK2, Homo sapiens, UniProt P24941)",100
"DYRK4 (Homo sapiens, UniProt Q9NR20)",107
"PTK2B (Homo sapiens, UniProt Q14289)",103
"CDK7 (Homo sapiens, UniProt P50613)",97.8
"RET (Homo sapiens, UniProt P07949)",95.6
"EGFR (Homo sapiens, UniProt P00533)",103
"PKN2 (Homo sapiens, UniProt Q16513)",79.2
"PRKD1 (Homo sapiens, UniProt Q15139)",91.9
"MAP3K2 (Homo sapiens, UniProt Q9Y2U5)",90.3
"NTRK3 (Homo sapiens, UniProt Q16288)",100
"CAMK1G (Homo sapiens, UniProt Q96NX5)",101
"MAP3K8 (Homo sapiens, UniProt P41279)",92
"CSNK2A2 (Homo sapiens, UniProt P19784)",105
"SLK (Homo sapiens, UniProt Q9H2G2)",101

# Some of these lines once more (sample 4):
target,remaining activity [%]
"NEK9 (Homo sapiens, UniProt Q8TD19)",108
"ROS1 (Homo sapiens, UniProt P08922)",99.1
"Cyclin-dependent kinase 2, with cyclin A (CDK2, Homo sapiens, UniProt P24941)",100
"DYRK4 (Homo sapiens, UniProt Q9NR20)",107
"PTK2B (Homo sapiens, UniProt Q14289)",103
"CDK7 (Homo sapiens, UniProt P50613)",97.8
"RET (Homo sapiens, UniProt P07949)",95.6
